Experimental data collected from several papers.
Each numbered part is a random draw from the data of one study; scales do not carry over between parts.

Series 1 — technique: RNA Bind-n-Seq; form: RNA; sample: in vitro; tested at: 200 nM; setting: whole 134-nt RNA, ends assumed; added: 150 mM LiCl; relative to: input library; direction: higher = stronger binding; measurement: log2 enrichment; library: 7-deaza-guanosine replaces G
Target: Fragile X messenger ribonucleoprotein 1, C-terminal low-complexity region (Fmr1, Mus musculus, UniProt P35922)
Shared flanks, not repeated: GGGAGUUCUACAGUCCGACGAUC … UGGAAUUCUCGGGUGUCAAGG
UCCUGUGCUACACAUCGUAUGUACCGAAUCGGCCCCCCGGGGCCCCCCGGCCCCCCGGGAAAGUAUUAUGUUACGCCGUUCGGAUCUGCA: -2.4
GUCCUGUGCUACACAUCGUAUGUACCGAAUCGGCCCCCCGGGCCCCCCGGCCCCCCGGGAAAGUAUUAUGUUACGCCGUUCGGAUCUGCA: 0.204
GCAGGAAGUAAAAACAAAUGGAAAUGCUUCGGAUAGUGGCAGGGGUGGGGGUUGCUAAGGAAAGGGUGCGAUGGGAGUGGGUAAAGAGUU: 0.754
AAGUCCUGUGCUACACAUCGUAUGUACCGAAUCGGGUUUUUGGGUUUUUGGGAGGGAAAGUAUUAUGUUACGCCGUUCGGAUCUGCACUU: -0.663
CCUGUGCUACACAUCGUAUGUACCGAAUCGGGCCCCCCGGGGCCCCCCGGGGCCCCCCGGAAAGUAUUAUGUUACGCCGUUCGGAUCUGC: -2.65
AAGUCCUGUGCUACACAUCGUAUGUACCGAAUCGGGUUUUUGGGAAAGGGUUUGGGAAAGUAUUAUGUUACGCCGUUCGGAUCUGCACUU: -3
AAGUCCUGUGCUACACAUCGUAUGUACCGAAUCGGGAAAAAAAGGGAAAGGGAGGGAAAGUAUUAUGUUACGCCGUUCGGAUCUGCACUU: -0.212
CUCAAGUCCUGUGCUACACAUCGUAUGUACCGAAUCGGGAGGGAGGGGAGGGGAAAGUAUUAUGUUACGCCGUUCGGAUCUGCACUUCCA: -0.585
CCUCAAGUCCUGUGCUACACAUCGUAUGUACCGAAUCGGGGCGGGCGGCGGGAAAGUAUUAUGUUACGCCGUUCGGAUCUGCACUUCCAG: -0.907
CAAGUCCUGUGCUACACAUCGUAUGUACCGAAUCGGGUGGGUUUUUUUGGGAGGGAAAGUAUUAUGUUACGCCGUUCGGAUCUGCACUUC: 0.149
AGUCCUGUGCUACACAUCGUAUGUACCGAAUCGGGAAAAAGGGAGGGAAAAAAAGGGAAAGUAUUAUGUUACGCCGUUCGGAUCUGCACU: -0.582

Series 2 — technique: RNA Bind-n-Seq; form: RNA; sample: in vitro; tested at: 365 nM; relative to: no-protein control; direction: higher = stronger binding; measurement: RBNS enrichment (R)
Target: RNA binding protein fox-1 homolog 2, RRM domain, GST-SBP tag (RBFOX2, Homo sapiens, UniProt O43251-10, residues 100-194)
Setting: natural RNA segment, single round, ends assumed
Shared flanks, not repeated: GGGAGUUCUACAGUCCGACGAUC … UGGAAUUCUCGGGUGCCAA
Target sequence (chain): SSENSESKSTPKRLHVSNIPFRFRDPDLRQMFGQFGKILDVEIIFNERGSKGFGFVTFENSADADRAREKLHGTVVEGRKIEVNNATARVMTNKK
CUCAGCAGAAGUGAUGACUCUUAAAAAUUGGCUUUGACCAAAGUUCUCUUGUUUUCAGGGAAAGAACAUAAAAGCUUUUUGAACUACAGCCUUUUUAAAAGAGGGAUGGG: 0.549
CAGAUCUGACCUGCCUGAGACAACCCAGGUAAUUUGGGGUUUGAUCAGAGGUCUAAUGGUAGCAAACGACACAGCGACCUUCUUCAUUACUUUGGCCAAGGUUGAAGAUG: 0.231
UCCAGAGGUUGAAGGACUGACUCUCACAUCUGUCCUGAGGUAGAGAGUAGGGGUGGGGACAAGGUACUUUCCCUCUCUCUGCCUUGUUUAUUUUGUACUGUAAUGAAUGU: 0.987
CCUGGGUCACAAUGAUCAGUUGGUUUUUCCAUUAGGGAGGGAAGGUCUGGGCCUGCUUAGCAAGAACCGCUUUAUUCCGGUUCCCAUACCACAUUCAGCCGGCCAGGAGA: 0.294
GAGAAAGGAAAUGGGCUAUUGCCAAAGGACAGGUGGCGUUAGAUGGCUGUGAGGGUGACCUGGUGAGGGAAGGGUUGGAAUGAGCUGCUGCAGGAGGCCAAGGGAUGCCU: 2.24
CCUCUAAACUUUGAUUUAUUGAAGUUUUAUUUGGCAAGAAAAAAGAAAUUGAAUCUUGAUCAAUAUUUAAACCAAAGGGAAAAGGGAAAACCAAAACCAAACCAAAGUUC: 0.408
GGACAAGGGACGACGGCCGACGGCAGAGCAUCAGCAGCCGACACAUAGUUCGGGUCGGGGCCUUGGGUGGUCCUGCAUGGCCCGGGACUCAUCUCACGGACCCUCCGUUC: 0.555
AUAAGUUUCCUUGGAGUUUUAUGCACAUGUUUGAUUGUUCUAGAUAAAUUGUCAUAAACAUUCUAGGAAGUUCAAGAAAAUGAUGCAGUACCCAGCACAUGAAAGACCUA: 0.338
CACUUCUUCAGUGAUUCUUCAGUGAUCCUGAGAGACUAACAGCUGGAGACUCUAGCUGGAGCAGUUGGCUCCUAUUGGCUGUGUUUGCCUGUCUGUCUUCCUGUCACGUG: 0.572
AAUCAUCCCCGUGACCUCCUCAGCUGCUGACAAUCCUAUUUAGCAUAUGCAAAUCUUUUAUUGUAGAGGACCAGACCAUCGCUGCUGAAGGGACAGGCUGGUGGAGCCUG: 0.476
AAUUAUUGAUCAAGAAGACAGGUUUGUUUCCUAAUUAGCACACCCUGACUUCACUCAUUUGCUUUCUUUUCCUUGGAACCCUGCCUAAUAACUUCUGUGGGAGCUCAUCC: 0.663
AGGACAUGGAUCCAAAAUGAUGAUGAAGCAUCUCCCAUGGGGAGGUGAUGGUGGGGAGAUGAUGGGCUAAACAGGCAACUUUUCAAAAACACAGCUAUCAUAGAAAAGAA: 1.12

Series 3 — technique: universal PBM; form: double-stranded DNA, one strand shown; sample: in vitro; tested at: not given; direction: higher = stronger binding; measurement: E-score
Target: Sal-like protein 4, full length isoform B (SALL4, Homo sapiens, UniProt Q9UJQ4-2, residues 1-616)
Setting: 8-mer, flanks averaged, mean of replicates
Construct (chain): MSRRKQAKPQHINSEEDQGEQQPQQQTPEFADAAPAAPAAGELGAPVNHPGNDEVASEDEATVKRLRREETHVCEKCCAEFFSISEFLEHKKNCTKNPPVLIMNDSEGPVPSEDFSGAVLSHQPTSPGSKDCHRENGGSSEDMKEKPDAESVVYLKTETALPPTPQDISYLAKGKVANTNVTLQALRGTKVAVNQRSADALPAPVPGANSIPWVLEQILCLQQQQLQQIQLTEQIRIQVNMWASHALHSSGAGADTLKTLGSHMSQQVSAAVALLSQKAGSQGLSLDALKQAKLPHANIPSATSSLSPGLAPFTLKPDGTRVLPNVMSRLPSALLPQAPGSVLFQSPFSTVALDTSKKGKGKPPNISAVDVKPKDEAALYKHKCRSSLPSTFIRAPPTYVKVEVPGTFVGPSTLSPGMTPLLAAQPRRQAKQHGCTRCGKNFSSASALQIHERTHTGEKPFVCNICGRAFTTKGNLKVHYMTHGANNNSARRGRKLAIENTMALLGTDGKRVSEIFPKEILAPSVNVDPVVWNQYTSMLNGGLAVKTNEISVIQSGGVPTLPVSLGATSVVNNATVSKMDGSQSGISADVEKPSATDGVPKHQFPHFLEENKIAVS
ATTGAAAT: 0.332
CTTGCGCA: 0.0972
GACTTGCC: -0.24
AAGTTAAC: 0.195
AAACTACG: 0.0199
TAGCCGGA: -0.252
CATTGAGA: 0.0814
TCCCCAGA: -0.181
GATCCAAA: 0.155
GAGTATGC: 0.0495
GGCAAGAA: 0.18
ATCACTGA: 0.0901
CAGAAGTA: 0.2
TAGCAAAA: 0.224
GCAACGAA: 0.0155
AAGTATCG: 0.0793
CAATCCCA: -0.185
ACCTGTGA: -0.0875
AGAGAACA: 0.0832
TAGTGCCA: -0.172
AAGCGGCG: -0.281

Series 4 — technique: protein-binding microarray; form: double-stranded DNA, one strand shown; sample: in vitro; tested at: 250 nM; setting: 60-bp whole probe; added: salmon DNA 0.4 mg/ml; relative to: random background probes; direction: higher = stronger binding; measurement: log fluorescence; shared flanks, not repeated: GCCTAGCAC … GTCTTGATTCGCTTGACGCTGCTG
Target: Interferon regulatory factor 7, full length, phosphomimetic (IRF7, Homo sapiens, UniProt Q92985, residues 1-503, S101K/S471D/S472D/S475D/S476D/S477D/S483D/S484D/S487D)
Residues (chain): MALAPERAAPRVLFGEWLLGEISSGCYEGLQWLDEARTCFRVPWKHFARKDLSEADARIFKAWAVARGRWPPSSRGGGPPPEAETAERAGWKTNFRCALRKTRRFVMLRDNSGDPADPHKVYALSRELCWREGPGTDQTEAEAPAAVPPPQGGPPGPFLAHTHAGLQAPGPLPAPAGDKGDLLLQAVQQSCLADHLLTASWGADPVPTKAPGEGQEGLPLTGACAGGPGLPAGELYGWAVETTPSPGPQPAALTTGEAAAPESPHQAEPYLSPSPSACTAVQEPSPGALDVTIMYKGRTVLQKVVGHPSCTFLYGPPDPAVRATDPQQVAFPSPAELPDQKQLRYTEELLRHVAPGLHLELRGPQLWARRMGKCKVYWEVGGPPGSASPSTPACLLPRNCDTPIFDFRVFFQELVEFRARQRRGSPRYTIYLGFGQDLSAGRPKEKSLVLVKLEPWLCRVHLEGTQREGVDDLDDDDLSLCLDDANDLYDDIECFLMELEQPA
GACGAACTGAGTACCGAGACGTGCTAG: -0.127 z-score
TCATCTCCCATTCTGAAACTGTGCTAG: 0.942 z-score
GACGGTATTGGTATCGGGACGTGCTAG: -0.0896 z-score
TTAGAACTGAGTATTGATTAGTGCTAG: -0.196 z-score
TTAGATTTCAGTAGCGATTAGTGCTAG: 0.125 z-score
GACGGTATAGGGACTGGGGACGTGCTA: -0.446 z-score
GACGAACTGGGGACTGGGGACGTGCTA: -0.528 z-score
GGGAGATGACTAAGAGGGGTGTGCTAG: -1.05 z-score
GACTGACTGGGACTGGGGACGTGCTAG: -0.363 z-score
GACGGTATCGGTCTCGAGACGTGCTAG: 0.849 z-score
GACGAACTTGGGACTGGAGACGTGCTA: -0.195 z-score
TTAGGTATCCTTTTCCTGTAGTGCTAG: 1.4 z-score
GACGGTTTCGGGAATCGGGACGTGCTA: 3.2 z-score
GACGGACTGGGGTATAGGGACGTGCTA: -0.191 z-score
GACGTTTTCAGTCTCGAGACGTGCTAG: 1.17 z-score
TTAGAACTGAGTTTCGGTTAGTGCTAG: 7.79 z-score
CTAAATATCTTTGTTGAAAAGTGCTAG: 0.659 z-score
GACGATTTCAGTTTCGAGCCGTGCTAG: 2.42 z-score
TTAGGTATCGTACTGGGTTAGTGCTAG: 0.216 z-score
GACGGACTGGCCACTGGGGACGTGCTA: -0.892 z-score

Series 5 — technique: RNA Bind-n-Seq; form: RNA; sample: in vitro; tested at: 20 nM; setting: 6-mer, flanks averaged, single round; added: 150 mM KCl; relative to: input library; direction: higher = stronger binding; measurement: 6-mer enrichment (R)
Target: TAR DNA-binding protein 43, full length, His tag (TARDBP, Homo sapiens, UniProt Q13148, residues 1-414)
CAUGAU: 0.638
ACCACG: 0.748
UUUCAA: 0.572
UCAUGA: 0.627
GGAGAA: 1.69
AAUAUC: 0.589
AAAAUC: 0.604
GCCCAU: 0.688
GGAUGG: 3.77
UCGACA: 0.632
UACUCA: 0.551
AUUGAC: 0.619
GUGACA: 0.891
AGCAAA: 0.696
ACCACA: 0.656
GCCGGU: 1.3
CCCAAU: 0.653
CAGUGC: 0.853
AAGGUG: 1.39
UCUUCG: 0.57

A few entries again (series 4):
GACGAACTTGGGACTGGAGACGTGCTA: -0.195 z-score
GACGGTATCGGTCTCGAGACGTGCTAG: 0.849 z-score
GACGGACTGGGGTATAGGGACGTGCTA: -0.191 z-score
TTAGATTTCAGTAGCGATTAGTGCTAG: 0.125 z-score
GACGATTTCAGTTTCGAGCCGTGCTAG: 2.42 z-score
GACGTTTTCAGTCTCGAGACGTGCTAG: 1.17 z-score
